# Assay results from different studies.
# Every numbered part comes from another study and shows a few of its results, in no order. Changes are numbered by the printed parent chain.

# Sample 1
# Target: CCND2, cyclin fold, Cln2 fusion (human)
# Technique: yeast growth competition, sequencing
# Sample: yeast
# Notes: weak parent motif
# Baseline: not given
# Direction: higher = stronger binding
# Starting sequence: E2F1 docking peptide (human); PPVKRRLDLETDH
Variant,normalised enrichment score
PPVKRRLTLETDH [D8T],0.362
PKVKRRLDLETDH [P2K],0.179
PPVKRRLDLETWH [D12W],0.0659
LPVKRRLDLETDH [P1L],0.987
PPVKRRLDLFTDH [E10F],0.151
PPVKRRLDLETNH [D12N],-0.345
RPVKRRLDLETDH [P1R],0.101
PPVKRRLDLEIDH [T11I],-0.248

# Sample 2
# Target: Krueppel-like factor 3, full length (KLF3, Homo sapiens, UniProt P57682, residues 1-345)
# UniProt P57682, sequence (whole entry, looked up): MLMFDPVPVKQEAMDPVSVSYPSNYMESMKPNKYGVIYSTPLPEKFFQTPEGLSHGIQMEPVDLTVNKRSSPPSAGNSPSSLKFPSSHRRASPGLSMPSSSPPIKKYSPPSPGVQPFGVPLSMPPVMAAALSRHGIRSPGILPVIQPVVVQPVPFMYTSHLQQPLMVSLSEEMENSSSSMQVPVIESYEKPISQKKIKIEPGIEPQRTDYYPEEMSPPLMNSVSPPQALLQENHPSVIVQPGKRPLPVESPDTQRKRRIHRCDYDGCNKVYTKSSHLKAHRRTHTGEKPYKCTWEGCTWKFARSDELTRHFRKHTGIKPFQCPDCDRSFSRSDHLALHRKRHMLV
# Technique: protein-binding microarray
# Form: hairpin DNA
# Sample: in vitro
# Concentration: not given
# Notes: whole hairpin DNA, median over replicate spots
# Baseline: not given
# Direction: higher = stronger binding
Sequence,median fluorescence
GAGGCCGACCACCGCCAGCCTCCTGGCTGGCGGTGGTCGGCCTCACACTC,8750 a.u.
GAGGCCCGCCGCGCCCAGCCTCCTGGCTGGGCGCGGCGGGCCTCACACTC (5mC at 7 37),8730 a.u.
GAGGCCGACCGCTCCCAGCCTCCTGGCTGGGAGCGGTCGGCCTCACACTC,8270 a.u.
GAGGCCGACCACGCCCAGCCTCCTGGCTGGGCGTGGTCGGCCTCACACTC (5mC at 32),9080 a.u.
GAGGCCGACCGCGCCCAGCCTCCTGGCTGGGCGCGGTCGGCCTCACACTC (5mC at 32 34),8640 a.u.
GAGGCCGAGCGCGCCCAGCCTCCTGGCTGGGCGCGCTCGGCCTCACACTC (5mC at 36),8480 a.u.
GAGGCCGACCACGTCCAGCCTCCTGGCTGGACGTGGTCGGCCTCACACTC,8800 a.u.
GAGGCCGACCGCGCCCAGCCTCCTGGCTGGGCGCGGTCGGCCTCACACTC (5mC at 12 32),8620 a.u.

# Sample 3
# Target: PABPC1L2, full length, GST fusion (mouse, UniProt A0ABA7IW68)
# Technique: RNAcompete
# Form: RNA
# Sample: in vitro
# Concentration: 20 nM
# Notes: 7-mer, probes averaged, single round
# Baseline: mean of 7-mers
# Direction: higher = stronger binding
# Construct (chain): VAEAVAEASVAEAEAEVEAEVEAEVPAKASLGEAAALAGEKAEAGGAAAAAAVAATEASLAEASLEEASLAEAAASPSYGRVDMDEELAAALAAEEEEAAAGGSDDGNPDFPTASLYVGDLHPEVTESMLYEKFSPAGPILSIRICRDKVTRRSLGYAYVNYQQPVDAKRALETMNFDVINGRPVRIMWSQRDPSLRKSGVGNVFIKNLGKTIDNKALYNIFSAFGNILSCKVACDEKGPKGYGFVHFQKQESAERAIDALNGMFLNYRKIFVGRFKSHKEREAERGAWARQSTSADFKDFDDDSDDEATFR
Sequence,7-mer Z-score
UGCGUAU,-0.306
ACAAAGC,0.606
UUCCCAA,-0.148
CCACGGG,-0.0409
CAAAAGU,1.79
CUGUAGC,-0.155
GAAGGCG,0.182
GCGGUUA,0.151

# Mixed results
Sequence,target,observed,form,concentration,endpoint,result
YTKKYLLSF,"HLA class I histocompatibility antigen, C alpha chain, allele C*04:01 (Homo sapiens, UniProt P10321)",peptide-MHC binding,peptide,concentration not given,binding,inactive

# A few entries again (sample 3):
Sequence,7-mer Z-score
GAAGGCG,0.182
UGCGUAU,-0.306
